Assay results gathered from unrelated publications.
A part holds a random share of what one study measured.

Block 1
Target: Fragile X messenger ribonucleoprotein 1, C-terminal low-complexity region (Fmr1, Mus musculus, UniProt P35922)
Method: RNA Bind-n-Seq
Molecule type: RNA
Sample: in vitro
Concentration: 200 nM
Setting: whole 134-nt RNA, ends assumed
With: 150 mM LiCl
Reference: input library
Direction: higher = stronger binding
All molecules: 7-deaza-guanosine replaces G
Constant ends, left off below: GGGAGUUCUACAGUCCGACGAUC … UGGAAUUCUCGGGUGUCAAGG
| Oligonucleotide | log2 enrichment |
| --- | --- |
| GCAGGAAGUAAAAACAAAUGGAAAUGCUUCGGAUAGUGGCAGGGGUGGGGGUUGCUACGGAAAGGGUGGGAUGGGAGUGGGUAAAGAGUU | 1.48 |
| ACCAUGCAUGUGGGCAUCUUUGGGAAGUGGGGCAAGGGGGGGAUAGGGAGGGGGGUAACACUUUGGGAACAGGUGGUCCCAGGUCGUUUC | 1.29 |
| ACCAUGCAGGUGGGCUUCUUUGGGAAGUGGGGCAAGGGGGGGAUAGGGAGGGGGGUAACACUUUGGGAACAGGUGGUCCCAGGUCGUUUC | 0.531 |
| CACAGAGAACACGCACCCACACAGACACAGAGGGAAGGGGUUGGGAUGGGGACAGGGUGCACAGCAGGGCGGGGUAGGACCCCAGCCCCU | 0.973 |
| CCUGUGCUACACAUCGUAUGUACCGAAUCGGGUUUUUUGGGUUUUUUGGGUUUUUUGGGGAAAGUAUUAUGUUACGCCGUUCGGAUCUGC | -1.5 |
| AGUCCUGUGCUACACAUCGUAUGUACCGAAUCGGGUUUGGGUUUUUUUGGGUUUGGGAAAGUAUUAUGUUACGCCGUUCGGAUCUGCACU | -1.49 |
| ACCAUGCAGGUGGGCAUCUUUGGGAAGUGGGGCAAGGGGGGGAUAGGGAGGGGGGUAACACUUUGGGAACAGGUGGUCCCAGGUCUUUUC | 1.16 |
| UCAAGUCCUGUGCUACACAUCGUAUGUACCGAAUCGGAAAAAGGUUUUUGGAGGAAAGUAUUAUGUUACGCCGUUCGGAUCUGCACUUCC | -0.787 |
| CAAGUCCUGUGCUACACAUCGUAUGUACCGAAUCGGGAAAAGGAAAAGGGAAAAGGAAAGUAUUAUGUUACGCCGUUCGGAUCUGCACUU | -1.6 |
| CACAGACAACACGCACCCACACAGACACAGAGGGAAGGGGUUGGGAUGGGGACAGGGUGCACAGCAGGGCGGGGUAGGACCCCACCCCCU | -0.357 |
| ACCAUGCAGGUGGGCAUCUUUGGGAAGUGGGACAAGGGGGGGAUAGGGAGGGGGGUAACACUUUGGGAACAGGUGGUCCCAGGUCGUUUC | 1.41 |

Block 2
Target: Centromere-binding protein 1, full length, N-terminal tag (CBF1, Saccharomyces cerevisiae, UniProt P17106, residues 1-351)
UniProt P17106, sequence (whole entry, looked up): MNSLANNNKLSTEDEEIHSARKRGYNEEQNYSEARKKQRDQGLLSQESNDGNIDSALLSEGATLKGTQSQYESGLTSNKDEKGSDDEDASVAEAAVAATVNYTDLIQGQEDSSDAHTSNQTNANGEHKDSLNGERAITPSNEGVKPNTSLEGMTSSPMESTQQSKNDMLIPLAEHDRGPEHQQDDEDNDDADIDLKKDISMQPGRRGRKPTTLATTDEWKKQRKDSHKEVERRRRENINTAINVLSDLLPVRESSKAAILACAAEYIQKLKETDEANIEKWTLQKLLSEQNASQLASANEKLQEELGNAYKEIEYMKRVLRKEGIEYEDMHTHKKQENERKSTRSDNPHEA
Method: protein-binding microarray
Molecule type: double-stranded DNA, one strand shown
Sample: in vitro
Concentration: 0.8 µM
Setting: whole 60-bp probe, no competitor
Direction: higher = stronger binding
Constant ends, left off below: … GTCTTGATTCGCTTGACGCTGCTG
| Oligonucleotide | fluorescence intensity [a.u.] |
| --- | --- |
| TGTACGAAGCTATCATGTGATATTATAGTAGTTAGG | 2890 |
| CTATTCTTGCTAACCAACGTGTTGTATATGAAATTC | 579 |
| GAACATCCACTAAATCTGATGATTGTTTCTTAATAG | 490 |
| CTATCTTCTGTGGACGTGACAACGTTACGTATATTC | 696 |
| GAACGGATATTGAATCACATGGGATTTCAGATTTAG | 1570 |
| GAACCGAGCGAGAATCACGTAAAGAAGGTTCTATAG | 548 |
| GAAAAATTGCCTTATAACGTGGGCCATGTCATGTAG | 530 |
| CTAACGCAGCAACCGGTGATGGCGAAGTTTTACTTC | 472 |
| TGTACGAAGCTATTACGTGTGATTATAGTAGTTAGG | 543 |
| CTATTTGGCGAGTGACATGTGAAAACTTTGCCTTTC | 699 |
| CTACTTACTCGGTATCACATGGAAAAGACCCCCTTC | 1090 |
| GAAAGAAGTAATATTATCATGATGAATGAATGATAG | 554 |
| GAAGTTTGCTCATAATACAGTCACAGATGTGAGTAG | 568 |
| CCTAACTACTATACACGCCTGGTATAGCTTCGTACA | 516 |
| CTATAGTTATTGTTGCACCTGAGGCAAAAGCGGTTC | 573 |
| GAAGACTTTCTCACGCTGATGATGATGACAATTTAG | 560 |
| CTAAGGAAAAAACCCGTGATTACTAAAGGCATATTC | 1800 |
| GAAGCAAATTGCATCAACATGATGCAAAAAGTCTAG | 507 |
| GAAGATGATGACGACCACGACAACTGGTGTCATTAG | 524 |
| GAAAATGCTTTAAGGCACGCCGCTTAACCTTTTTAG | 476 |
| CTAGCAAGGATTGGTGATGAGATAAGATAATGATTC | 518 |
| CTAGAACGGCCCGCAATCGTGACCCGGCCAAAGTTC | 655 |
| GAATCCGCAGAACATGATGCTAAAAGCCAGCTATAG | 528 |
| GAAAAAATTAGTACGCACGAGCGAATTAACATTTAG | 766 |
| GAAACAAAGGGGCGCCGCGTGGTGTTACGTACTTAG | 539 |

Block 3
Target: RNA binding protein fox-1 homolog 2, RRM domain, GST-SBP tag (RBFOX2, Homo sapiens, UniProt O43251-10, residues 100-194)
Method: RNA Bind-n-Seq
Molecule type: RNA
Sample: in vitro
Concentration: 365 nM
Setting: natural RNA segment, single round, ends assumed
Reference: no-protein control
Direction: higher = stronger binding
Constant ends, left off below: GGGAGUUCUACAGUCCGACGAUC … UGGAAUUCUCGGGUGCCAA
Target sequence (chain): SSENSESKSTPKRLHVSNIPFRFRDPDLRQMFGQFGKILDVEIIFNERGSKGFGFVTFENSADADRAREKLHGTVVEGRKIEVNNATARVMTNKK
| Oligonucleotide | RBNS enrichment (R) |
| --- | --- |
| CACAGCAGUGGGUACAGCCUGUGUGGGCGCAGGUGGUCCCUUUUCUGUGCCCUGACAAGUAGACUGGCACACUCCUGCCCCACACUCAGCCUUCUGCAGCAGGUAGGCUU | 0.379 |
| AUAUGAAUAUUUCUCUCCAUGUAUAGUGUGAGCUGCCAAUGCAUUAUCUUAAUACAUCAAGAAGGAAAUCAGAUUUCAGGCACACAUUAGCAAUUGUUUGUUAAUGUCCU | 0.363 |
| AUGCUUUUGACACUGUUUCUAGAAUUUUAAAGUUGAAAAAUGAUGAUAUAAUCCAGAAAUUGUUACUUCGGAGCAUGACAAUAGAUUUCUUUAACAAAGACUCAAGAUCA | 0.394 |
| CCUGCUUUUUAGGCCUGGAUAACAGUAUCACCAUCCUUAUUUACAGAAGGGUAAAACUGACUCUUAAUGAGAAAAGCUUUAUAAGUUCAAGGGCUGUAAAAUAUGAACUA | 0.306 |
| UGAUUACAACCUUUAAAGCAAGAGGAGGCGAGUUAAUUUGGAUGAGUGUGAUUUUGCUGAUUGAAUGUGAGUUUUCAAAUAGGAGUCUUUUUCUGCAAUUUGUUUGCAUU | 6.96 |
| GAGAGACAAUCUAAACAUUCUCUUAGGCUGCAGAUAAGAGAAGUAGGCUCCAUUCCAAAGUGGGAAAGAAAUUCUGCUAGCAUUGUUUAAAUCAGGCAAAAUUUGUUCCU | 0.844 |
| AGGUACCAAUCAUUGAUUUUUCUUUUGUAAACUAAAACGUUUAAAAUAAAAUAGCAUUUACAGUUUCUACAGACUGGUGGAACUUAAAUGAACCUGUCUUACUGUAGAAG | 0.704 |
| AAUGACAAGUGAAUCAUAUUGACAUUUUACAAUCUUAGAUUUUUCUUUUUUUUUCUUUUGAGACAGGGUCUUGAUCCGUCGCCCAGGCGGGAGUUGCAGUAGCAUGAUCA | 12.5 |
| AAAUAUAAGCGAACAGAAAGCCUUGGCCUGCGAGAGGCCACUGCCUCUCGGCCCAGCAAGAGAACAAUUCUUUCCGGGAUUGGCUGGCUCAGGUUGGGCGGGGCCGGUUC | 0.245 |
| UUUGAUAUUUCUCUUCCGAGAUGAACAAGUAGCAUGUAAUGCAACUGUUUGACAGUUUAACUCAAGUCAUGCUUCAAACUGUUUUAAUGAUCAAAUCAAGACACAUUUCA | 0.666 |
| GAUGUGCCAGUUUCUGAGACAUCUUUUUAAGGCUCUUACUGCAGCUCCCCUCCCCACCCUCCUCUUCUUUGCAAAACAGACCCAAGCAGGGCAGGCUCAGACCACUCGCU | 0.306 |
| UUAACGCAAAAAUCCACAGUCCAAAGUCUCAUCUGAGACAAGGCAAGUCCCUUCCACCUAUGAGCCUGUAAAAUCAAAAGCAAGCUAGUUACUUCCUAGAUACCAACAGG | 0.526 |

Block 4
Target: Histone acetyltransferase KAT6A, winged helix 2, GST fusion (KAT6A, Homo sapiens, UniProt Q92794, residues 85-181)
Method: protein binding microarray
Molecule type: double-stranded DNA, one strand shown
Sample: in vitro
Concentration: not given
Setting: 8-mer, flanks averaged, mean of 2 arrays, mostly near background
Reference: not given
Direction: higher = stronger binding
Construct (chain): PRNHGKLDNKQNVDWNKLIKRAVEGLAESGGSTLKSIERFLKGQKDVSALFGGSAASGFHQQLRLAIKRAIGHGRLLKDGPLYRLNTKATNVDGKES
| Oligonucleotide | E-score |
| --- | --- |
| CATCACCA | -0.207 |
| CGATAGTC | -0.0182 |
| AGGAATAC | -0.0254 |
| ACGTACAC | -0.123 |
| GCGTGCTA | -0.172 |
| AATACGAG | 0.0798 |
| CTTAACTC | -0.022 |
| ATTCGGGA | 0.0869 |
| CTTACGAA | 0.0127 |
| AGAACGGG | -0.0741 |
| CTGCGTGC | 0.213 |
| CCGCGACC | 0.294 |
| GCACGGAA | -0.0982 |
| ACCCTGAA | 4e-05 |
| GACGTCTA | -0.277 |
| ACCTTAGT | -0.129 |
| AACACGTT | -0.157 |
| ACACTCCC | -0.039 |
| AAAGCAGG | 0.101 |
| AATAATGT | 0.0272 |
| ATCAATAA | 0.114 |

Some of these lines once more (block 4):
| Oligonucleotide | E-score |
| --- | --- |
| GCGTGCTA | -0.172 |
| AATACGAG | 0.0798 |
| CTTAACTC | -0.022 |
| ATTCGGGA | 0.0869 |
| CTTACGAA | 0.0127 |
| AGAACGGG | -0.0741 |
